Measurements collected from several papers.
Lines come from different studies, so protocols differ. Several values in a cell are separate wells, animals, samples, runs or records. Numbers after ± are the reported error.

| SMILES | assay | system | setting | scale | quantity | result |
| --- | --- | --- | --- | --- | --- | --- |
| Nc1c(CC(=O)O)cccc1C(=O)c1ccc(Br)cc1 |  | cynomolgus monkey hepatocytes | 37 °C, 10% monkey serum |  | total uptake clearance | 12.1 µL/min/10⁶ cells |
| Cc1cc(C(=O)NC(C)(C)COc2cccc3c2C(N)=NS(=O)(=O)N3)cc(C)n1.O=S(=O)(O)O |  | Sprague-Dawley rat, plasma | oral, 10 mg/kg, vehicle 1% methylcellulose | reference: female over male | AUC(last) ratio | 1.12 |
| Nc1nc2c(ncn2COCCO)c(=O)[nH]1 | shake-flask | methanol-ethanol mixture | 298.2 K, mass fraction 0.3 |  | solubility | 570 µg/mL |
| CCCCC[C@H]1CC[C@H](c2ccc(OCC)c(F)c2F)CC1 |  | rat, placenta | 5000 ng/mL in perfusate, high dose, mixture of 21 LCMs |  | placental accumulation | 340 ± 466 ng/g |
| Cc1cc(NC2CCN(C(=O)OC3CCN(C(=O)/C=C/CN(C)C)C3)CC2)n2ncc(C(C)C)c2n1 (centres unmarked) | Phase I dose escalation CTCAE v4.0, measured: blood creatinine increased | patients with advanced solid tumours | dose not given, QD dosing any grade |  | patients with adverse event | 2% |
| COc1ccc2c(c1)CN(C(=O)CCN1CCC(Cc3ccccc3)CC1)CC[S@@+]2[O-] | telemetry | conscious male beagle dogs | intravenous, 4 mg/kg, 24 h |  | QRS duration | 34 ± 10 ms |
| Cc1cc(Nc2ccc(S(F)(F)(F)(F)F)cc2)n2nc(C(C)(F)F)nc2n1 |  | Plasmodium vivax malaria patients | oral, 400 mg |  | adverse event gastrointestinal disorders | 20% |
| Cn1cc(Nc2nc(N)nc(-c3cccc(-n4ccc5cc(C6CC6)cc(F)c5c4=O)c3CO)n2)cn1 |  | healthy subjects | oral, 300 mg tablet, fed high-fat breakfast |  | drug-related nausea subjects | 0% |
| CCCCc1ccc(-c2ccc(C#N)cc2)cc1 |  | Sprague-Dawley rat, female, placenta | 1000 ng/mL in perfusate, 50 (unit not given), middle dose, mixture of 21 LCMs |  | placental accumulation | 15.9 ± 16.8 ng/g |
| CCc1ccccc1NC(=O)CSc1nnc(-c2cccc(OC)c2)n1C |  | aqueous buffer | pH 7.4 |  | solubility | 33.3 µg/mL |
| COc1cc(C(=O)NC2CCN(C)CC2)c(F)cc1Nc1ncc(C(F)(F)F)c(Oc2cccc3c2C(=O)N(C)C3)n1 |  | human patients, plasma | oral, 300 mg single dose, geometric mean |  | dose-normalised AUC(0-inf) | 287 nmol·h/L per mg |
| CCc1c(-c2ccccc2)c(-c2ccccc2)nn1-c1ccccc1-c1cccc(OCC(=O)O)c1 |  | Sprague-Dawley rat | intravenous |  | Cmax/dose | 2950 kg·ng/mL/mg and 3900 kg·ng/mL/mg and 3730 kg·ng/mL/mg |
| O=C(Nc1nc2cccc(-c3ccc(CN4CCS(=O)(=O)CC4)cc3)n2n1)C1CC1 | measured: blood triglycerides increased | rheumatoid arthritis patients | oral, 150 mg once daily, 4 weeks, any relatedness |  | treatment-emergent adverse events | 0% |
| N[C@@H](C[18F])C(=O)O | PET imaging | female athymic nude mice, U-87 MG xenograft, tumor | intravenous, 30 min |  | tracer uptake | 1.68 ± 0.11 %ID/cc |
| Cc1ccc([C@@H]2O[C@H](CO)[C@@H](O)[C@H](O)[C@H]2O)cc1Cc1ccc(-c2ccc(F)cc2)s1 |  | Japanese type 2 diabetes patients | 25 mg, day 5, 24 h urine collection | reference: baseline | urinary calcium excretion change | -14.4 mg |
| N#Cc1cccc(-c2ccc3ncc(-c4cc(F)cc(F)c4)c(N4CCC(N)CC4)c3c2)c1O |  | male human, plasma | 20 mg, geometric mean |  | absolute bioavailability | 69% |
| C[C@@H](Nc1cc(F)cc(F)c1)c1cc(C(=O)N(C)C)cc2c(=O)cc(N3CCOCC3)oc12 | measured: Nausea | advanced solid tumour patients | oral, dose not given, dose expansion |  | patients discontinuing for AE | 0% |
| COc1ccc([C@@H](O)c2cc(-c3ncnc4cc(N5CCOCC5)ccc34)c(F)cc2Cl)nn1 |  | locally advanced rectal cancer | oral, 50 mg, together with: capecitabine and radiotherapy |  | rectal tenesmus TEAE | 0% |
| Cc1cc(C)c(CNC(=O)c2cc(Cl)c3c(c2C)O[C@@](C)([C@H]2CC[C@H](N(C)C)CC2)O3)c(=O)[nH]1 |  | relapsed/refractory NHL patients | oral, 200 mg once daily, onset after cycle 1 day 1 |  | grade ≥3 adverse event Neutropenia | 8.3% |
| CN(CCCN1CCN(C(=O)CN2CCN(CC(=O)[O-])CCN(CC(=O)[O-])CCN(CC(=O)[O-])CC2)CC1)c1ccc2nccc(C(=O)NCC(=O)N3CC(F)(F)C[C@H]3C#N)c2c1.[68Ga+3] |  | mice, HT-1080.hFAP and HT-1080 wild-type xenografts, kidney | iv, 500 pmol, 1 h post injection |  | uptake | 2 ± 0.5 %IA/g |

| SMILES | assay | system | setting | scale | quantity | result |
| --- | --- | --- | --- | --- | --- | --- |
| O=c1[nH]c(=O)n([C@@H]2O[C@H](CO)[C@@H](O)[C@@H]2F)cc1CCCC[18F] |  | nude mice, RG2 tumour, bone | intravenous, dose not given, 2 h |  | biodistribution | 1.14 ± 0.11 %ID/g |
| Cc1c(Cl)c(C)[n+]([O-])c(Cl)c1-c1noc(-c2cc(O)c(O)c([N+](=O)[O-])c2)n1 |  | healthy Chinese human | oral, 100 mg |  | any treatment-emergent adverse event | 33.3% |
| CC(C)N(CCCCOCC(=O)NS(C)(=O)=O)c1cnc(-c2ccccc2)c(-c2ccccc2)n1 | population PK model | healthy human, plasma | oral |  | k21 rate constant | 0.035 h⁻¹ |
| N#Cc1ccc2c(c1)[C@H]1CCCN(C(=O)c3ccc4[nH]cnc4c3)[C@H]1C2 |  | human, plasma | oral, 20 mg once daily, steady state, median |  | tmax steady state | 0.667 h |
| CCOC(=O)N1C[C@@H](C2CCCCC2)N[C@@H](c2ccc(-c3ccccc3)cc2)C1 | shake-flask, LC-HRMS | aqueous buffer | 16 h, pH 6.8 |  | solubility | < 4 µM |
| CNC(=O)c1ccc(-c2cnc3ncc(Cc4ccc5ncccc5c4)n3n2)cc1F | measured: Hypoalbuminemia | gastric cancer patients | oral, 600 mg twice daily, expansion cohort, grade 3-4 |  | patients with adverse event | 0% |
| CC(C)=CCC/C(C)=C/C(=O)O.Cc1cc(/C=C/C#N)cc(C)c1Nc1ccnc(Nc2ccc(C#N)cc2)n1 |  | water |  |  | equilibrium solubility | 5.24 ± 0.12 µg/mL |
| CC(C)(C(=O)N1CCOc2c(C#N)cncc2C1)C(F)F |  | human, both sexes | oral, 10 mg single dose |  | subjects with myalgia TEAE | 0% |
| Cc1nc(-c2ccc(OCC(C)C)c(C#N)c2)sc1C(=O)O |  | human, plasma | oral, 10 mg, together with: verinurad 2.5 mg | reference: test over reference | geometric mean ratio AUC(0-24) | 93.9 |
| C[C@H](CCC(=O)NCC(=O)O)[C@H]1CC[C@H]2[C@@H]3[C@H](O)C[C@@H]4C[C@H](O[C@@H]5O[C@H](C(=O)O)[C@@H](O)[C@H](O)[C@H]5O)CC[C@]4(C)[C@H]3CC[C@]12C |  | human, plasma | baseline |  | Cmin | 17.9 ± 3.3 nM |
| Cn1cc(Nc2nccc(-c3ccc4c(c3)CN(C3COC3)CC[C@H]4NC(=O)c3cn(C(C)(C)C)nn3)n2)cn1 | measured: B cells, memory, non-class-switched | human, clinical trial, whole blood | 50 mg twice daily, follow-up |  | percent change from baseline | -3.88% |
| N#Cc1ccccc1[C@@H]1COC[C@]2(CCOc3ccccc32)N1 | shake-flask, LC-HRMS | aqueous buffer | 16 h, pH 6.8 |  | solubility | > 750 µM |
| COc1cccc(-c2n[nH]c(SCc3ccccn3)n2)c1OC |  | Sprague-Dawley rats, both sexes | oral dietary, 100 mg/kg/day, day 7, 0 h |  | plasma concentration | 1530 ng/mL |
| C[C@@H](Oc1ccc(S(C)(=O)=O)cc1C(=O)N1C[C@@H]2C[C@]2(c2cc(C(F)(F)F)on2)C1)C(F)(F)F |  | healthy young humans, plasma | oral, 50 mg once daily | reference: AUCtau,ss over AUC(0-inf) | linearity index | 0.779 |
| CCOC(=O)N1C[C@@H](c2ccc(Cl)cc2)N[C@@H](c2ccc(C(=O)OC)cc2)C1 | shake-flask, LC-HRMS | aqueous buffer | 16 h, pH 6.8 |  | solubility | < 4 µM |
| Cc1cc([C@H]2C[C@H]3[C@@H](C)SC(N)=N[C@@]3(c3ccc(F)cc3F)CO2)on1 |  | male 129/SVE mouse, CSF | subcutaneous, 50 mg/kg, 9 h |  | CSF concentration | 11 nM |
| CCOC(=O)N1C[C@@H](C2CCOCC2)N[C@@H](C2CCC2)C1 | shake-flask, LC-HRMS | aqueous buffer | 16 h, pH 6.8 |  | solubility | > 750 µM |
| C=CC(=O)N1CCC(c2ccc(C(N)=O)c(-c3ccc(Oc4ccccc4)cc3)n2)CC1 | CTCAE 4.03 | patients with relapsed/refractory MCL | oral, dose not given |  | incidence of serious blood count decrease | 0.9% |
| O=C(O)CCC(=O)O.[2H]C([2H])([2H])Oc1cc(C)c2[nH]ccc2c1CN1CC[C@@H](C2CC2)C[C@H]1c1ccc(C(=O)O)cc1 | multiple ascending dose | healthy Chinese subjects | 125 mg twice daily |  | subjects with TEAE Eczema | 0% |
| Nc1cccc2ccc(/C=C/C(=O)c3ccccc3)cc12 |  | toluene | 20 °C |  | Stokes shift | 135 nm |

| SMILES | assay | system | setting | scale | quantity | result |
| --- | --- | --- | --- | --- | --- | --- |
| CNCCOC12CC3(C)CC(C)(CC(Cn4ncc(-c5ccc(N6CCc7cccc(C(=O)Nc8nc9ccccc9s8)c7C6)nc5C(=O)O)c4C)(C3)C1)C2 |  | beagle dog, male, anaesthetised | intravenous bolus, 0.03 mg/kg, 10 min | reference: baseline | QRS duration change | 1 ms |
| CCN1CCN(Cc2ccc(NC(=O)c3ccc(C)c(NC(=O)c4cncc(-c5cccs5)c4)c3)cc2C(F)(F)F)CC1 |  | C57BL/6 mice, epithelial lining fluid | intraperitoneal, 30 mg/kg |  | half-life | 1.94 h |
| CCN1/C(=C/C(C)=O)Sc2ccc(F)cc21 |  | cynomolgus monkey | oral, 30 mg/kg, 6 h post-dose | reference: pre-dose | heart rate change | 87.3 ± 20.6% |
| O=C(COc1ccc(Cl)cc1)NC12CC(c3nnc([C@H]4C[C@@H](OC(F)(F)F)C4)o3)(C1)C2 | measured: Nausea | human | 200 mg once daily, 28 (unit not given) |  | adverse event incidence | 22.2% |
| COc1ccc(-n2c(SCC(N)=O)nnc2-c2cccs2)cc1 |  | aqueous buffer | pH 7.4 |  | solubility | 16.4 µg/mL |
| Cc1cccc([C@H]2N[C@@H](c3ccc(Cl)c(Cl)c3)CO[C@@H]2C)c1 | shake-flask, LC-HRMS | aqueous buffer | 16 h, pH 6.8 |  | solubility | < 4 µM |
| O=c1[nH]c(=O)n([C@H]2C[C@H](O)[C@@H](CO)O2)cc1CCCCC[18F] |  | male CD-1 nu/nu mice, RG2 tumour, spleen | intravenous, dose not given, 2 h |  | biodistribution | 0.13 ± 0.03 %ID/g |
| Cc1c(C(=O)O)ccc2c3n(nc12)[C@@H]1[C@H](C3)N(CC2CC2)[C@@]2(C(=O)Nc3cc(Cl)ccc32)[C@H]1c1cccc(Cl)c1F |  | human patients phase Ia | oral, dose not given, grade ≥3, all patients |  | decreased appetite incidence | 0% |
| Cn1cc([C@H]2C[C@H]3CSC(N)=N[C@@]3(c3ccc(F)cc3F)CO2)cn1 |  | mouse | subcutaneous, 3 mg/kg, 9 h |  | CSF concentration | not detected |
| CCOC(=O)N1C[C@@H](c2ccc(Cl)cc2)N[C@@H](c2cccc(Br)c2)C1 | shake-flask, LC-HRMS | aqueous buffer | 16 h, pH 6.8 |  | solubility | < 4 µM |
| NC1(C(=O)N[C@@H](CCO)c2ccc(Cl)cc2)CCN(c2nc[nH]c3nccc2-3)CC1 |  | metastatic CRPC patients | dose not given, any grade, treatment-related, all doses, together with: enzalutamide 160 mg daily |  | incidence of Hyper-glycaemia | 46.7% |
| Cl.[2H]C([2H])([2H])CC(=O)c1cnc(NC(=O)C2CC2)cc1Nc1cccc(-c2ncn(C([2H])([2H])[2H])n2)c1OC | geometric mean | human | oral, 20 mg once daily, day 1, fasted, liquid, multiple dose |  | AUC(0-inf) | 1220 ng·h/mL |
| CCn1c(SCC(=O)Nc2cccc(OC)c2)nnc1-c1ccncc1 |  | aqueous buffer | pH 7.4 |  | solubility | 4.6 µg/mL |
| CNCc1ccc(-c2[nH]c3cc(F)cc4c3c2CCNC4=O)cc1 |  | human patients | oral, 600 mg twice daily, grade 4 |  | vomiting incidence | 0% |
| Cc1cccc(CNC(=O)c2cn(CCNC(=O)c3ccccc3Sc3c([N+](=O)[O-])ncn3C)c3cc4c(cc3c2=O)OC(F)(F)O4)n1 |  | Sprague-Dawley rat, male, plasma | intramuscular, 3 mg/kg |  | MRT(0-inf) | 7.59 ± 1.91 h |
| CCOC(=O)N1C[C@@H]([C@H](C)CC)N[C@@H](C2CCC2)C1 | shake-flask, LC-HRMS | aqueous buffer | 16 h, pH 6.8 |  | solubility | > 750 µM |
| CCc1cc(C(=O)NC)c2nccc(N3CCc4c(cc(Cn5ccnc5)cc4-c4cn(C)nc4C(F)(F)F)C3=O)c2c1 |  | Sprague Dawley rats | oral, 100 mg/kg twice daily, 7 days | reference: vehicle | blood TP change | -1% |
| Fc1ccc([C@@H]2COC[C@H](c3ccc4c(c3)OCCO4)N2)c2ccccc12 | shake-flask, LC-HRMS | aqueous buffer | 16 h, pH 6.8 |  | solubility | < 4 µM |
| N#Cc1ccc2c(c1)[C@H]1CCCN(C(=O)c3ccc4[nH]cnc4c3)[C@H]1C2 |  | human | 240 mg, day 15 |  | median ACTH level | 6.8 pmol/L |
